Published values gathered from unrelated publications.
Numbered parts are unrelated; each lists some results of a single study. “And” joins repeats or separate records; there may be more than shown. Substitutions count along the parent as printed.

Sample 1 — method: aptamer microarray, sandwich; molecule type: DNA with 2'F-ANA; sample: in vitro; concentration: 200 nM; with: Cy3 exosite-II aptamer, 400 nM; direction: higher = stronger binding; measurement: mean fluorescence intensity; sequence: GGTTGGTGTGGTTGG
Target: Prothrombin, mature alpha-thrombin (F2, Homo sapiens, UniProt P00734)
Notes: whole 15-mer aptamer, many near background
Modification = 2'F-ANA at 5 7 8 9 10 11 12 13; result = 51 a.u.
Modification = 2'F-ANA at 3 4 8 11 12 14 15; result = 388 a.u.
Modification = 2'F-ANA at 1 6 7 10 14; result = 47.2 a.u.
Modification = 2'F-ANA at 1 3 4 5 7 8 9 11 13 14 15; result = 44.1 a.u.
Modification = 2'F-ANA at 1 3 7 8 11 13 15; result = 292 a.u.
Modification = 2'F-ANA at 2 3 4 8 10 12 13; result = 244 a.u.
Modification = 2'F-ANA at 2 3 4 5 7 8 9 10 14; result = 46.6 a.u.
Modification = 2'F-ANA at 4 5 7 8 10 12 14; result = 43.1 a.u.

Sample 2 — target: CCNB3, cyclin fold, Cln2 fusion (human); method: yeast growth competition, sequencing; sample: yeast; notes: strong parent motif; reference: not given; direction: higher = stronger binding; measurement: normalised enrichment score; starting sequence: viral docking peptide; KGVKRKLFAEDSS
Change = KGVKEKLFAEDSS [R5E]; result = 0.31
Change = KGVKRKLFIEDSS [A9I]; result = 2.77
Change = KGRKRKLFAEDSS [V3R]; result = -0.0733
Change = KGVVRKLFAEDSS [K4V]; result = 2.84
Change = KGVKRKLFAPDSS [E10P]; result = 2.18
Change = KGVKRKLKAEDSS [F8K]; result = 0.223
Change = KGVTRKLFAEDSS [K4T]; result = 0.341
Change = KGVKRWLFAEDSS [K6W]; result = 0.206
Change = KGVERKLFAEDSS [K4E]; result = -0.0114
Change = KGVKRTLFAEDSS [K6T]; result = 5.35
Change = KGTKRKLFAEDSS [V3T]; result = 0.568
Change = KGVKRKLAAEDSS [F8A]; result = 0.383
Change = KGVKRKLFAQDSS [E10Q]; result = 1.6
Change = KGVKRKLFAVDSS [E10V]; result = 1.76
Change = KGVKRKYFAEDSS [L7Y]; result = 0.465
Change = KGQKRKLFAEDSS [V3Q]; result = 0.15
Change = KGVKRKLRAEDSS [F8R]; result = 0.0698
Change = KKVKRKLFAEDSS [G2K]; result = 2.44
Change = KGVKRMLFAEDSS [K6M]; result = 0.995

Sample 3 — observed: ligand displacement; concentration: 10 µM; measurement: inhibition
Target: 5-hydroxytryptamine receptor 2A (HTR2A, Homo sapiens, UniProt P28223)
Sequence of UniProt P28223 (whole entry, looked up): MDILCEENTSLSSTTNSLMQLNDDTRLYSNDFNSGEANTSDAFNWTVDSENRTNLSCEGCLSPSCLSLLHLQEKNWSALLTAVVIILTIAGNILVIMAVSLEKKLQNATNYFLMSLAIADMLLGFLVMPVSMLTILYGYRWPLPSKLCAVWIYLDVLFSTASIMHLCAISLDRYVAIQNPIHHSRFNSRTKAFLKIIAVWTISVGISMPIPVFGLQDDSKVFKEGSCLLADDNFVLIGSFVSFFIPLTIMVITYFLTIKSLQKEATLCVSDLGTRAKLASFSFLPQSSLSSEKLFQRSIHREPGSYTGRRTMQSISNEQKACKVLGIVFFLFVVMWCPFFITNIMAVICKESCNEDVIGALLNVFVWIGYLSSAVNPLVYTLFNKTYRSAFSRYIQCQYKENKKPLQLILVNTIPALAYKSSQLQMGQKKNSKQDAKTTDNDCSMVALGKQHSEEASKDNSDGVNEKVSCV
SMILES = COc1cccc(NC(=O)c2nc3scc(CN(C)Cc4ccccc4)c3c(=O)[nH]2)c1; result = 14.9%
SMILES = CN(C)C(=O)c1sc2nc(N3CCC(S(C)(=O)=O)CC3)cc(C(F)(F)F)c2c1N; result = -1.79%
SMILES = COc1cc(-c2cn(C3CCc4c(F)cccc4N(CC(F)(F)F)C3=O)nn2)ccc1-n1cnc(C)c1 (stereo not drawn); result = 11.5%

Sample 4 — method: RNA Bind-n-Seq; molecule type: RNA; sample: in vitro; concentration: not given; reference: input RNA pool; direction: higher = stronger binding; measurement: bound/input enrichment
Target: RING finger protein unkempt homolog, zinc fingers 1-6, GST-SBP tag (UNK, Homo sapiens, UniProt Q9C0B0, residues 30-357)
Sequence of UniProt Q9C0B0 (30-357, looked up): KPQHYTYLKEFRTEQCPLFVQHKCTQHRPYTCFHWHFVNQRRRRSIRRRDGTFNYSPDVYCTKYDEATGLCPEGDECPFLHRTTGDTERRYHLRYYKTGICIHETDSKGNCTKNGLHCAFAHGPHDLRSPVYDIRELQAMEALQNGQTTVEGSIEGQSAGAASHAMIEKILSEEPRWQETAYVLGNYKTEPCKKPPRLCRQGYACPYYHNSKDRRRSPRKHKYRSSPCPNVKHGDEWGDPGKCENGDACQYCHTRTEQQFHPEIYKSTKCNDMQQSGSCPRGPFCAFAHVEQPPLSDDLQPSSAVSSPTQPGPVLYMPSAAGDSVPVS
Notes: RNA with constant flanks, human and mouse sites, ends assumed
All sequences stand within: GGGAGUUCUACAGUCCGACGAUC … CAACAGAGGAUUGAGCAUCA
Sequence = UUCAUUUAUACCAUCUAAUAUAUGACACACUGUUGUAGUAUGUAUAAUUUUGUGAUCUUUAUUUUCCCUUUGUAUUCAUUUUAAGCAUCUAAAUAAAUUGCUGUAUUGUGCUUAAUGUAA; result = 1.08 ratio
Sequence = CUCUUAAAAGCCCACAAAAAGGCUAUUCGUAGAGCCACAGUCAACACAUUUGGUUAUAUUGCAAAGGCCAUUGGCCCUCAUGAUGUAUUGGCUACACUUCUGAACAACCUCAAAGUUCAA; result = 0.167 ratio
Sequence = UCGCAGCGGAGAGAGCAGAAGGCAGGAGGAGGGAGGGGAGGAGGGAGGAGGGAGGGAGAGAGGGAAUCCAGCUACCACCACCCAAAGCCAGCGUCUGCUUUCUGUCCUCAUUUCCUUUUC; result = 0.408 ratio
Sequence = GCAGAUUAUAAUGGCAGACUGGCGGCAGAAAUAGAUGAUAGAAAGCAACUCACCCGAAUGUUAGCAGAUUUUCUUCGUUGUCAAAAGGAAGCCCUUGCAGAGAAAGAACAUAAAUUGGAA; result = 1.23 ratio
Sequence = UUUUAUGAACGACUGGCAGGCCAUGGCCCUAAACUAGGACCUGUCACCAGGAAGUAUCCUUUAGUUACCAGGUAUUUUACUUUCCCCUUUGGAGAAAUGGCCUUAUCCGCAGAGGAAGCC; result = 1.07 ratio
Sequence = UGGGGUGGGGUGGGGUGGGGGUGGGGGCCUUCCCUCUGCUUGCUCUGCAGAUGAGGGGAUAGCCUUCUCUAUCCUUUGCAGCUCUGACAAUUGCCCCGGACCUGCCCAUGCCGGCAUACC; result = 2.22 ratio
Sequence = GUCUUCUCUUCUUCCUGUUUGUUCUCCCCGUGUUGUCCUCCUGCUGGCCAAGCGGCCUCUUAGUAGUGGUGGGUUUGGUGAAGGUAUCUUCUCUACCCAGCGCUUGACCUGAGUGGUGUG; result = 0.304 ratio
Sequence = UUCCACCUGUAUUAGUUAUCUAUUGCUGUGUAAAAAAUUACCCUAAAUUUAGUAUGUUAAAAUAGUAAACAUUAUCUGUCAGUUUCUGUGGGUUAAGAAUUUGGGAGUAGUUUAACAUGA; result = 5.41 ratio

Other studies, line by line
SMILES = CC(C)S(=O)(=O)c1cc2c(Nc3ccc4sc(C5CCCC5)nc4c3)ccnc2cc1OCCO; cell line = HT-29; observed = necroptosis; method = CCK-8; concentration = 1.111 µM; with = TNF-α, Smac mimetic, z-VAD; measurement = cell survival; result = 98.1% and 101% and 97.5%

Some of these lines once more (sample 2):
Change = KGVKRTLFAEDSS [K6T]; result = 5.35
Change = KGTKRKLFAEDSS [V3T]; result = 0.568
Change = KGVKRKLAAEDSS [F8A]; result = 0.383
Change = KGVKRKLFAQDSS [E10Q]; result = 1.6
Change = KGVKRKLFAVDSS [E10V]; result = 1.76
